Results of several laboratories.
Each line is one published result; not all experiments were run side by side.
T1: spt16/pob3 C-terminal deleted 1-937 (Schizosaccharomyces pombe); chain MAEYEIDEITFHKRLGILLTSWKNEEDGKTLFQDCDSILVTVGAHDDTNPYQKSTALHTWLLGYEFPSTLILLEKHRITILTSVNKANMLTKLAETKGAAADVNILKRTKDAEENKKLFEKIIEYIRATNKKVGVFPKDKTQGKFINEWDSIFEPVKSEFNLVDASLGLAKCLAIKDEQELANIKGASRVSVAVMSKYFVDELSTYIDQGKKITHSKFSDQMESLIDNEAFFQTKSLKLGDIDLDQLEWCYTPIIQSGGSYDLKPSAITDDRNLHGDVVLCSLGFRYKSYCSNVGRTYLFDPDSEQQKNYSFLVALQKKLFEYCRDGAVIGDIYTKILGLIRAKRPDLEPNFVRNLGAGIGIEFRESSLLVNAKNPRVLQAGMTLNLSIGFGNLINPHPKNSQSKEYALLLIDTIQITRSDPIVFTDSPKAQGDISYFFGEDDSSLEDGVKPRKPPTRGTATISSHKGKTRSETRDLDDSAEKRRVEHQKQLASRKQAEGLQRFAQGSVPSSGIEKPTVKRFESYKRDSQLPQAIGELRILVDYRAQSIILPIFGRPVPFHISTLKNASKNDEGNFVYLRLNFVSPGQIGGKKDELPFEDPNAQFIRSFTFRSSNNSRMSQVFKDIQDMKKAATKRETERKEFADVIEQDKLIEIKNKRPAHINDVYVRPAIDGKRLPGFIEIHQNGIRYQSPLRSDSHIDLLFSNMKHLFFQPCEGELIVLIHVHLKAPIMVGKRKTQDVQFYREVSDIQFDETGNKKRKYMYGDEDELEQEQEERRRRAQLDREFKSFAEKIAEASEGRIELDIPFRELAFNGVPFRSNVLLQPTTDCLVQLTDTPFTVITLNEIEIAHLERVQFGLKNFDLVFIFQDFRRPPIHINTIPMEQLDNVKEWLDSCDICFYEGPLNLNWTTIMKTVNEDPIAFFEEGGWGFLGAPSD; chain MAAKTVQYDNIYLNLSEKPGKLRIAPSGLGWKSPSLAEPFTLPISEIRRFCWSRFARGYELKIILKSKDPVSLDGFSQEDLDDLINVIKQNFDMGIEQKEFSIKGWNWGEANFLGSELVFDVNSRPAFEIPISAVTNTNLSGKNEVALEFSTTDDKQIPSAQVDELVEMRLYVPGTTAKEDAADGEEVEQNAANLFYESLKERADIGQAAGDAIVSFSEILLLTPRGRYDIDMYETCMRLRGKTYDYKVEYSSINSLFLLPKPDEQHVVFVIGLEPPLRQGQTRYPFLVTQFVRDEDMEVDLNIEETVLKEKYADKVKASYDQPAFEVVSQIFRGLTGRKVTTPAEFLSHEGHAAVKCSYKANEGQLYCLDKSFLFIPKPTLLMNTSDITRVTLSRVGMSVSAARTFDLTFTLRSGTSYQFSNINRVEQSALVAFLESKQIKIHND
B1: PRP40 351-415 (Saccharomyces cerevisiae, UniProt P33203); chain NYTRDRIARDNFKSLLREVPIKIKANTRWSDIYPHIKSDPRFLHMLGRNGSSCLDLFLDFVDEQR
B2: NOTCH3 EGF5-12 197-505 (Homo sapiens, UniProt Q9UM47); sequence looked up; chain PAVPCAPSPCRNGGTCRQSGDLTYDCACLPGFEGQNCEVNVDDCPGHRCLNGGTCVDGVNTYNCQCPPEWTGQFCTEDVDECQLQPNACHNGGTCFNTLGGHSCVCVNGWTGESCSQNIDDCATAVCFHGATCHDRVASFYCACPMGKTGLLCHLDDACVSNPCHEDAICDTNPVNGRAICTCPPGFTGGACDQDVDECSIGANPCEHLGRCVNTQGSFLCQCGRGYTGPRCETDVNECLSGPCRNQATCLDRIGQFTCICMAGFTGTYCEVDIDECQSSPCVNGGVCKDRVNGFSCTCPSGFSGSTCQ
B3: UBX5 (Saccharomyces cerevisiae, UniProt Q06682); sequence looked up; chain MSEGKVDEFMAITGADDAAIATQFIEMADGNLNTAISLFFENGGAALLSSNNTPTPSNSTPMAPTSVDSDADAQLAERLQREAYQQQQPDQDYVRPPDEARHEVLTETSGFPISYGGIGGRFEPLHRVNDMFDEGRPESIFNQRLDDTNTNTYINDNSSDSLDSEEENDDDEYEYVEEPVIELDEDGNIKEYTKLVRKPKTISKEQKLALLFRPPFSIMSKLDLDAAKQKARAKQKWIMINIQDSGIFQCQALNRDLWSSRPVKTIIKENFVFLQYQYESRNAQPYLQFYHLNNKDDLPHIAILDPITGERVKQWNRVVPIPEQFISEINEFLASFSLDPKVPNPTVNEPLPKVDPTTLTEEQQMELAIKESLNNNSSKSNQEEVPSTGEEQKRVQEPDPFSTIEARVHPEPPNKPGITTRIQIRTGDGSRLVRRFNALEDTVRTIYEVIKTEMDGFADSRFTLNDHQREDLIDKLNMTIADAGLKNSSLLLEKLDPEIE
B4: TIM10 8-93 (Saccharomyces cerevisiae, UniProt P87108); sequence looked up; chain GGQPQLSSQQKIQAAEAELDLVTDMFNKLVNNCYKKCINTSYSEGELNKNESSCLDRCVAKYFETNVQVGENMQKMGQSFNAAGKF
B5: USP7 207-560 (Homo sapiens, UniProt Q93009); sequence looked up; chain SKKHTGYVGLKNQGATCYMNSLLQTLFFTNQLRKAVYMMPTEGDDSSKSVPLALQRVFYELQHSDKPVGTKKLTKSFGWETLDSFMQHDVQELCRVLLDNVENKMKGTCVEGTIPKLFRGKMVSYIQCKEVDYRSDRREDYYDIQLSIKGKKNIFESFVDYVAVEQLDGDNKYDAGEHGLQEAEKGVKFLTLPPVLHLQLMRFMYDPQTDQNIKINDRFEFPEQLPLDEFLQKTDPKDPANYILHAVLVHSGDNHGGHYVVYLNPKGDGKWCKFDDDVVSRCTKEEAIEHNYGGHDDDLSVRHCTNAYMLVYIRESKLSEVLQAVTDHDIPQQLVERLQEEKRIEAQKRKERQE
B6: POL30 1-258 E113G (Saccharomyces cerevisiae, UniProt P15873); chain MLEAKFEEASLFKRIIDGFKDCVQLVNFQCKEDGIIAQAVDDSRVLLVSLEIGVEAFQEYRCDHPVTLGMDLTSLSKILRCGNNTDTLTLIADNTPDSIILLFEDTKKDRIAGYSLKLMDIDADFLKIEELQYDSTLSLPSSEFSKIVRDLSQLSDSINIMITKETIKFVADGDIGSGSVIIKPFVDMEHPETSIKLEMDQPVDLTFGAKYLLDIIKGSSLSDRVGIRLSSEAPALFQFDLKSGFLQFFLAPKFNDEE
B7: abo1 (Schizosaccharomyces pombe, UniProt O14114); chain MKEEASEHGGSADETQELSPVSDSSDEMPNNAKRRRRSQSMIANKRIHQAFQEDEGDEDWEEEEHKPKAKRRYNTRSNESFSEGDDEPFEVSESSALEDELSDSEDSFIRSVRSKPKYKPGTRRSTRLRNRRSQDEEESEEEHRPILRERTSRINYSVPLAFPPVDEMDGDPSSQVNQSRSRKTHSELAITKLLRQQVSSFMPYIDSSGSESESDNTRIKKSSAKTIKALTDPANSGGPPDFGRIREKSDLADSDPLGVDSSLSFESVGGLDNYINQLKEMVMLPLLYPEIFQRFNMQPPRGVLFHGPPGTGKTLMARALAAACSSENKKVSFYMRKGADCLSKWVGEAERQLRLLFEEAKSTQPSIIFFDEIDGLAPVRSSKQEQIHASIVSTLLALMDGMESRGQVIIIGATNRPDAVDPALRRPGRFDREFYFPLPDRDARKKIIEIHTRNWDPPVPEWLCSMLAEKSKGYGGADLRALCTEAALNSIKRTYPQLYRSTKRLQIDPKTIKVKVKDFVMSMKRMIPSSERSSISPSKPLSPELKPLLNEAFQDIEKTLQKLMPVASKLNPLEEVMYDDPKENDFEYQQRLETFETLRIYKPRFLICGRKGLGQTALGPAILQQYEGVHVQSFDMSTLLQDSTQSIETSIIHLFLEVRRHTPSIIYIPDIDNWLNVLPLTAITTFSSMLERLDFSDQILFLALSSSPLSELHPQLREWFSSKQSVYSLQYPTRDSIIAFFQPILELIKASPTELPGGIPRKRRVLPELPLAPDPPPFTSQKITLKQTKQADMRLLNKLKIKLNALLGSLRARYRKFKKPLIDFNDIYCVDPETGHSYRSREECHYEFVDDVVKQIGSDQKFSMMSLEEIEKRTWDNCYCTPKQFVHDIKLILRDALQLEDSETIKRAQEMYANVLLGVEDMEDDQFSQRCERMALREAERRKLRHGKLQKHLDETKADMQFTSEKPSVDESITEVDDAIKDGPPVLAETLTNSLMEDVGPENVDMDIEDNEIFTNQSTMSVPSMLVENEESPKPDEYIDQKDKVQSPLLNGKSPVGVPSEAALRVSTDVSTNISSNGRADIPVDTLITSPADVPNNAPTDAHNITSADGHIENIEQEVVFPDLVFDEDRLTPLKQLLIDSTTGFTVDQLLHLHSFLYQIIWNTKSEWNRNSVVDECERAVKEFMINALQ
B8: EIF3J/GST 103-258 (Homo sapiens); Alexa Fluor 546 label; sequence looked up; chain EEPKVLTPEEQLADKLRLKKLQEESDLELAKETFGVNNAVYGIDAMNPSSRDDFTEFGKLLKDKITQYEKSLYYASFLEVLVRDVCISLEIDDLKKITNSLTVLCSEKQKQEKQSKAKKKKKGVVPGGGLKATMKDDLADYGGYDGGYVQDYEDFM
B9: PF-04518600 IgG; V domains shown; VH EVQLVESGGGLVQPGGSLRLSCAASGFTFSSYSMNWVRQAPGKGLEWVSYISSSSSTIDYADSVKGRFTISRDNAKNSLYLQMNSLRDEDTAVYYCARESGWYLFDYWGQGTLVTVSS; VL DIQMTQSPSSLSASVGDRVTITCRASQGISSWLAWYQQKPEKAPKSLIYAASSLQSGVPSRFSGSGSGTDFTLTISSLQPEDFATYYCQQYNSYPPTFGGGTKVEIK
B10: Gspt2 2-632 (Mus musculus, UniProt Q149F3); sequence looked up; chain DLGSSSDSAPDCWDQVDMEAPGSAPSGDGIAPAAMAAAEAAEAEAQRKHLSLAFSSQLNIHAKPFVPSVSAAEFVPSFLPGSAQPPAPTASSCDETCIGGAGEPEGKRMEWGAPVEPSKDGPLVSWEGSSSVVTMELSEPVVENGEVEMALEESWELKEVSEAKPEASLGDAGPPEESVKEVMEEKEEVRKSKSVSIPSGAPKKEHVNVVFIGHVDAGKSTIGGQIMFLTGMVDRRTLEKYEREAKEKNRETWYLSWALDTNQEERDKGKTVEVGRAYFETEKKHFTILDAPGHKSFVPNMIGGASQADLAVLVISARKGEFETGFEKGGQTREHAMLAKTAGVKYLIVLINKMDDPTVDWSSERYEECKEKLVPFLKKVGFSPKKDIHFMPCSGLTGANIKEQSDFCPWYTGLPFIPYLDSLPNFNRSIDGPIRLPIVDKYKDMGTVVLGKLESGSIFKGQQLVMMPNKHSVEVLGIVSDDAETDFVAPGENLKIRLKGIEEEEILPGFILCEPSNLCHSGRTFDVQIVIIEHKSIICPGYNAVLHIHTCIEEVEITALISLVDKKSGEKSKTRPRFVKQDQVCIARLRTAGTICLETFKDFPQMGRFTLRDEGKTIAIGKVLKLVPEKD
B11: NCOA4 339-442 (UniProt Q13772); 2Fe-2S cluster bound; chain DWLVKTDSCTNCQGNQPKGVEIENLGNLKCLNDHLEAKKPLSTPSMVTEDWLVQNHQDPCKVEEVCRANEPCTSFAECVCDENCEKEALYKWLLKKEGKDKNGM
B12: POMP (Homo sapiens, UniProt Q9Y244); chain MNARGLGSELKDSIPVTELSASGPFESHDLLRKGFSCVKNELLPSHPLELSEKNFQLNQDKMNFSTLRNIQGLFAPLKLQMEFKAVQQVQRLPFLSSSNLSLDVLRGNDETIGFEDILNDPSQSEVMGEPHLMVEYKLGLL

Under binding, `B1 (PRP40 351-415)` is recorded as “binds” (SNU71 (Saccharomyces cerevisiae, UniProt P53207); pull-down).
Under binding, `B2 (NOTCH3 EGF5-12 197-505)` is recorded as “binds” (DLL4 27-400 N257P/T271L/F280Y/S301R/Q305P (Homo sapiens, UniProt Q9NR61); SPR).
`B3 (UBX5)` — result for binding: “binds” (CDC48/UFD1/NPL4 (Saccharomyces cerevisiae); pull-down).
For `B4 (TIM10 8-93)`, binding read “binds” (TIM9 1-87 (Saccharomyces cerevisiae, UniProt O74700); SEC).
`B5 (USP7 207-560)`: binding “binds” (ubiquitin, N-terminal TAMRA label (UniProt P0CG48); fluorescence polarisation).
Under binding, `B6 (POL30 1-258 E113G)` is recorded as “binds” (RAD30 (Saccharomyces cerevisiae, UniProt Q04049); ELISA).
Under binding, `B7 (abo1)` is recorded as “binds” (T1, spt16/pob3 C-terminal deleted 1-937 (Schizosaccharomyces pombe); native gel).
`B8 (EIF3J/GST 103-258)` — result for binding: “binds” (eIF3 octamer PCI/MPN core 5-654 (Homo sapiens, UniProt Q14152); EMSA).
`B9 (PF-04518600 IgG)`: binding “binds” (TNFRSF4 (Homo sapiens, UniProt P43489); flow cytometry; antibody, HEK293T; in cells).
Under binding, `B10 (Gspt2 2-632)` is recorded as “binds” (UPF1 (Homo sapiens, UniProt Q92900); pull-down).
For `B11 (NCOA4 339-442)`, binding read “binds” (HERC2 2540-2700 (Homo sapiens, UniProt O95714); ITC).
For `B12 (POMP)`, binding read “binds” (PSMA3 (Homo sapiens, UniProt P25788); cryo-EM).
`nlpI (Escherichia coli, UniProt P0AFB1)` — result for binding: “binds” (prc K477A (Escherichia coli, UniProt P23865); cryo-EM).
For `colistin`, the MIC was no more than 0.5 µg/mL (Acinetobacter baumannii; broth microdilution; clinical isolate RKI-No_231/15).

Excerpt of the above:
For `B12 (POMP)`, binding read “binds” (PSMA3 (Homo sapiens, UniProt P25788); cryo-EM).
